Measurements from different studies.
Numbered parts are unrelated; each lists some results of a single study.
UniProt P42681, sequence (whole entry, looked up): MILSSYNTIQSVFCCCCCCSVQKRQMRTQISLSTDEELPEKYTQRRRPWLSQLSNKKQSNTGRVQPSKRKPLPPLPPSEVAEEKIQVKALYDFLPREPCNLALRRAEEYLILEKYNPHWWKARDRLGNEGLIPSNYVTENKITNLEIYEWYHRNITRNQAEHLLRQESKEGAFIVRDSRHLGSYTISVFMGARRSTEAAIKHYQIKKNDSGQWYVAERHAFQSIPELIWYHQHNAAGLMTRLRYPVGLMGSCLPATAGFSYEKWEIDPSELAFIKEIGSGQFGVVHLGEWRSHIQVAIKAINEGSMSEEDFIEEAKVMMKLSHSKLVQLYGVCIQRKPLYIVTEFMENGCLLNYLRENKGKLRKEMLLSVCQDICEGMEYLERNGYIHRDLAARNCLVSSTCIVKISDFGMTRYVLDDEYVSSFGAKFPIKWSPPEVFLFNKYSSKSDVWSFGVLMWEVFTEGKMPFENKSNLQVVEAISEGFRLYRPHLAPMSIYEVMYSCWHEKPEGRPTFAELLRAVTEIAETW
UniProt Q13237, sequence (whole entry, looked up): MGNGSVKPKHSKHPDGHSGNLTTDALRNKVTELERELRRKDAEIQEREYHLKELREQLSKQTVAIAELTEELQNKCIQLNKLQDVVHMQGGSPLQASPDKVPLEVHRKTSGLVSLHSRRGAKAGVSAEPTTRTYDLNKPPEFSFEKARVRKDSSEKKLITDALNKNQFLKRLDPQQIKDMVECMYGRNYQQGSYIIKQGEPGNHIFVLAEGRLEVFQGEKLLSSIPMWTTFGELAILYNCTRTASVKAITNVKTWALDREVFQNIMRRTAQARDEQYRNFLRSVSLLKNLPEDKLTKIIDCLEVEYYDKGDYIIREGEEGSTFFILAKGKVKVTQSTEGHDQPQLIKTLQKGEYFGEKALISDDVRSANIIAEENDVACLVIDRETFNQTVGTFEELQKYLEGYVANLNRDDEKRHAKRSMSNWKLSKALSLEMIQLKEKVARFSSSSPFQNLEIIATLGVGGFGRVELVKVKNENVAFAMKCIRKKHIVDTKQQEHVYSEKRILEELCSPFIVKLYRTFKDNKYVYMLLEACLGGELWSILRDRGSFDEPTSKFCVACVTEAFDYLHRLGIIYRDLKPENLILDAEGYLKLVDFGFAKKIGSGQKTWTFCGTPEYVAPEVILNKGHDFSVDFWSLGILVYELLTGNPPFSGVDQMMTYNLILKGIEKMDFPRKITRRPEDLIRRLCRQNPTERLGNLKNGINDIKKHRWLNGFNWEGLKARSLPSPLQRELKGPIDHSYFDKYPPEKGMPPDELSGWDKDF
UniProt P31751, sequence (whole entry, looked up): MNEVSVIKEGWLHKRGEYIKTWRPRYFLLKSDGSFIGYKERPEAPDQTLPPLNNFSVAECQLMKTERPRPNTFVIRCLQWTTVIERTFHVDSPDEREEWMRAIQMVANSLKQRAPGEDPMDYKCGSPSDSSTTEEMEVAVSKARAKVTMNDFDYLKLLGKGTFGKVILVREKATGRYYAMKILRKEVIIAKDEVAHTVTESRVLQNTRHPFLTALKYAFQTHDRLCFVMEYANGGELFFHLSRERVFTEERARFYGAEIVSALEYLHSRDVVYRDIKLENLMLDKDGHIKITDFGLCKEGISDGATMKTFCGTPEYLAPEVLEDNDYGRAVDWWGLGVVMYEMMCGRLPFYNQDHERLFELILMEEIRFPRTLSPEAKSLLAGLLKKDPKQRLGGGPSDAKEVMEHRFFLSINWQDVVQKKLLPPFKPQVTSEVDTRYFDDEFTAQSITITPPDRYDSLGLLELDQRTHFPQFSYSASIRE
UniProt Q08345, sequence (whole entry, looked up): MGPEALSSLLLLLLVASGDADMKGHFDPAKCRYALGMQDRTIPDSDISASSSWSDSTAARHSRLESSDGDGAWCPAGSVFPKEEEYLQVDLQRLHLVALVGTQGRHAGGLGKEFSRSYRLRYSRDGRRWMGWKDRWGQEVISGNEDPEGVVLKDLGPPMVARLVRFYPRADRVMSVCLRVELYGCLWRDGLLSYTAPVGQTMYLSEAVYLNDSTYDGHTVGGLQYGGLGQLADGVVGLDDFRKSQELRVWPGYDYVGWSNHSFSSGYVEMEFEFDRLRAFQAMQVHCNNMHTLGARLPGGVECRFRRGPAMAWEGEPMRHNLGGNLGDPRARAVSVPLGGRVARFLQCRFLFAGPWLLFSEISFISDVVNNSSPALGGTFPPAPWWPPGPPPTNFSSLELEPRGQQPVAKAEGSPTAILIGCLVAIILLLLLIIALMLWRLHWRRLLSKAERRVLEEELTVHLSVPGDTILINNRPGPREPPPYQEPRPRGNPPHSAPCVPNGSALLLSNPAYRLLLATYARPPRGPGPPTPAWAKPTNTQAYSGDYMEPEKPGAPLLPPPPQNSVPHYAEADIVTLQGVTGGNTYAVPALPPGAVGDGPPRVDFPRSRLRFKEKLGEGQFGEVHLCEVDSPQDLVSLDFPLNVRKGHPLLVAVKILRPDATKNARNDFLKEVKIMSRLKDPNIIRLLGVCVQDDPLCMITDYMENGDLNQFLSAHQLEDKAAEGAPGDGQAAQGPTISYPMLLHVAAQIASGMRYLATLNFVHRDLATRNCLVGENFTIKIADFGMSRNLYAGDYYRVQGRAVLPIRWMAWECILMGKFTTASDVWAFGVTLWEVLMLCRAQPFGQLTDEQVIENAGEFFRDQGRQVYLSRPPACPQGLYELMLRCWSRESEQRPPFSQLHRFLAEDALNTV
UniProt P04049, sequence (whole entry, looked up): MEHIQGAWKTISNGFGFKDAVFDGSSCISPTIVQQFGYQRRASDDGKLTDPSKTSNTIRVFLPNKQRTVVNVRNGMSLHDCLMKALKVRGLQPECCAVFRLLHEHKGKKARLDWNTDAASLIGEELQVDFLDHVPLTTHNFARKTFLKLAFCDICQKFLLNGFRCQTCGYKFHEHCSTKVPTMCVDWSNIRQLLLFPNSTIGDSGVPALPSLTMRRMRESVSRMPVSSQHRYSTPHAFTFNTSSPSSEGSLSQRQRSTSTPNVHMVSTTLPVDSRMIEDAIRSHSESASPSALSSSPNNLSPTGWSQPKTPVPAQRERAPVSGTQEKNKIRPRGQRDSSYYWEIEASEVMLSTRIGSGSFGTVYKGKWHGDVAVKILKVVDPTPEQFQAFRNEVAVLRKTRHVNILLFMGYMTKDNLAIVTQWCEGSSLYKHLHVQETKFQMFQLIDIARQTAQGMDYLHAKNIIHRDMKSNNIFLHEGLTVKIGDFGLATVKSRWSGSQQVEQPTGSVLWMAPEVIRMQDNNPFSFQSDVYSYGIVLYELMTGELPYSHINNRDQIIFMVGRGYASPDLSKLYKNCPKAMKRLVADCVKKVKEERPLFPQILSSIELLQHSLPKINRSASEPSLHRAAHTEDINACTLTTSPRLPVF
UniProt Q13546, sequence (whole entry, looked up): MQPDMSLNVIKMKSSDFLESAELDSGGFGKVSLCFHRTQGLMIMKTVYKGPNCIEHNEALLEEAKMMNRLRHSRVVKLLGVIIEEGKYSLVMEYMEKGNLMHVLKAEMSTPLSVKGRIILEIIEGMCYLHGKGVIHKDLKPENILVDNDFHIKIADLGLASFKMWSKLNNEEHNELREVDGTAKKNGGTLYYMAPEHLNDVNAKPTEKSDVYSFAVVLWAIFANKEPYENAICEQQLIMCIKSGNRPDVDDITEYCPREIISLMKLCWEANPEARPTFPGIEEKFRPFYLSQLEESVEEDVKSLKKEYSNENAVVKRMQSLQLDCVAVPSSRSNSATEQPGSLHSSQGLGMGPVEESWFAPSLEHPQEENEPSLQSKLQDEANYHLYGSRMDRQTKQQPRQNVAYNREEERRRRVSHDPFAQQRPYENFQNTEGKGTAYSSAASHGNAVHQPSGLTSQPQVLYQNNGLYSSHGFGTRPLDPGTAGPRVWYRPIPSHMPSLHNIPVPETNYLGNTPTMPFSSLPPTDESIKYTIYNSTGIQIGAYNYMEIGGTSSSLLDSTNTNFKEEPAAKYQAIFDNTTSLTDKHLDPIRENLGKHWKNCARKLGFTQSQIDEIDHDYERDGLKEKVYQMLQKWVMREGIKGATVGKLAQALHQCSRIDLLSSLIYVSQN
UniProt O75914, sequence (whole entry, looked up): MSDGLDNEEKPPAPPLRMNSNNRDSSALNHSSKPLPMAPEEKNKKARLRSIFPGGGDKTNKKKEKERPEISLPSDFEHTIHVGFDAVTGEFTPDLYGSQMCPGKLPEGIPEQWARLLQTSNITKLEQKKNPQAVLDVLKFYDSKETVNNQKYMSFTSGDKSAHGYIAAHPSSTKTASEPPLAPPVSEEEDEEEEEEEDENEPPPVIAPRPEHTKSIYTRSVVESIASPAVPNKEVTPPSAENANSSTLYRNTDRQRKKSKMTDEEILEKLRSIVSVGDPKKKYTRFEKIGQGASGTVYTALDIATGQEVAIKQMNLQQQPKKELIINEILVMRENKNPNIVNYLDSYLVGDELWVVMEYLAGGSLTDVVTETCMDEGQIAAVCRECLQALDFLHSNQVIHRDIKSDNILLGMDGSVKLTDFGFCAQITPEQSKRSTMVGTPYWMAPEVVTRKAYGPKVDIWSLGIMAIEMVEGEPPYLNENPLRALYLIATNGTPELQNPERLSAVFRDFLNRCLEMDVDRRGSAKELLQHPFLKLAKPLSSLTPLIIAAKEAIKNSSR

Set 1 — observed: cell-free assay; method: competition with immobilised ligand; concentration: 1 µM; quantity: remaining binding
Structure (SMILES): Cn1nc(C(F)(F)F)cc1-c1cnc(N2CCc3cc(S(=O)(=O)Nc4c(F)cc(Cl)cc4F)cc(N4CCCC4=O)c32)nc1
Receptor-interacting serine/threonine-protein kinase 1 (RIPK1, Homo sapiens, UniProt Q13546): 100%
RAF proto-oncogene serine/threonine-protein kinase (RAF1, Homo sapiens, UniProt P04049): 100%
Epithelial discoidin domain-containing receptor 1 (DDR1, Homo sapiens, UniProt Q08345): 100%
Non-receptor tyrosine-protein kinase TNK1 (TNK1, Homo sapiens, UniProt Q13470): 100%
Mitogen-activated protein kinase kinase kinase 11 (MAP3K11, Homo sapiens, UniProt Q16584): 100%
Tyrosine-protein kinase ABL1, phosphorylated (ABL1, Homo sapiens, UniProt P00519, Q252H): 99%
Ephrin type-B receptor 1 (EPHB1, Homo sapiens, UniProt P54762): 100%
1-phosphatidylinositol 3-phosphate 5-kinase (PIKFYVE, Homo sapiens, UniProt Q9Y2I7): 88%

Set 2 — observed: RNA clamping; method: fluorescence polarization; concentration: concentration not given; notes: mean of two replicates; with: FAM-labelled poly r(AG)8 RNA; quantity: fluorescence polarization change
Target: Eukaryotic initiation factor 4A-I (EIF4A1, Homo sapiens, UniProt P60842)
UniProt P60842, sequence (whole entry, looked up): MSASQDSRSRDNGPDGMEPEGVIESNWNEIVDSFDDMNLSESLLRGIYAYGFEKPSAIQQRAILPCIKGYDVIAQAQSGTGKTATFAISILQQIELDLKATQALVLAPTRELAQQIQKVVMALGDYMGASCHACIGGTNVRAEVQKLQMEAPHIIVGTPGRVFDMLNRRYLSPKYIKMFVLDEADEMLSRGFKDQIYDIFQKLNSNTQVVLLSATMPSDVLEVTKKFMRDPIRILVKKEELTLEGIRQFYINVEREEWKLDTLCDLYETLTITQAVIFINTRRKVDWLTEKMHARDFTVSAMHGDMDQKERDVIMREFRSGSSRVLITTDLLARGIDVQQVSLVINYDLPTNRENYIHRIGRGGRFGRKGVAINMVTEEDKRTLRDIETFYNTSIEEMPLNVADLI
COCCN[C@@]12c3nc(-c4ccccc4)[nH]c(=O)c3[C@@H](c3ccccc3)[C@]1(c1ccc(OC)cc1)Oc1cc(OC)cc(OC)c12: 6.6 mP
COC(=O)[C@@H]1[C@@H](c2ccccc2)[C@]2(c3ccc(OC)cc3)Oc3cc(OC)cc(OC)c3[C@@]23OC(Cc2ccccc2)=N[C@@]13O: 17.6 mP
COc1ccc([C@@]23Oc4cc(OC)cc(OC)c4[C@]2(OC)c2nc(-c4ccccc4)n(C)c(=O)c2[C@H]3c2ccccc2)cc1: -7.1 mP
C=CCN1c2cc(OC)cc(OC)c2[C@]2(O)[C@H](O)[C@H](C(=O)OC)[C@@H](c3ccccc3)[C@]12c1ccc(OC)cc1: 2.5 mP
COC(=O)[C@@H]1[C@@H](c2ccccc2)[C@]2(c3ccc(OC)cc3)Oc3cc(OC)cc(OC)c3[C@@]23NC(C(C)C)=N[C@@]13O: 70.1 mP
COC(=O)[C@@H]1[C@@H](c2ccccc2)[C@]2(c3ccc(OC)cc3)Oc3cc(OC)cc(OC)c3[C@@]23OC(c2cccc(OC)c2)=N[C@@]13O: 2.6 mP
COc1ccc([C@@]23Oc4cc(OC)cc(OC)c4[C@]2(O)[C@H](O)[C@H](C(=O)N(C)C)[C@H]3c2ccccc2)cc1: 58.5 mP

Set 3 — observed: enzyme activity; action: inhibitor; concentration: 0.5 µM; baseline: control; quantity: remaining activity
Structure (SMILES): CN(C)S(=O)(=O)c1ccc2c(c1)/C(=C/c1cc3c([nH]1)CCCC3)C(=O)N2
MAP/microtubule affinity-regulating kinase 4 (MARK4, Homo sapiens, UniProt Q96L34): 51.5%
Calcium/calmodulin-dependent protein kinase type IV (CAMK4, Homo sapiens, UniProt Q16566): 96.6%
Tyrosine-protein kinase TXK (TXK, Homo sapiens, UniProt P42681): 96%
Mitogen-activated protein kinase 14 (MAPK14, Homo sapiens, UniProt Q16539): 98.8%
Serine/threonine-protein kinase tousled-like 2 (TLK2, Homo sapiens, UniProt Q86UE8): 102%
Serine/threonine-protein kinase PLK3 (PLK3, Homo sapiens, UniProt Q9H4B4): 94.5%
RAC-beta serine/threonine-protein kinase (AKT2, Homo sapiens, UniProt P31751): 105%
Misshapen-like kinase 1 (MINK1, Homo sapiens, UniProt Q8N4C8): 83.8%
cGMP-dependent protein kinase 2 (PRKG2, Homo sapiens, UniProt Q13237): 95.9%
Cyclin-dependent kinase 9, with cyclin K (CDK9, Homo sapiens, UniProt P50750): 96.9%
Vascular endothelial growth factor receptor 2 (KDR, Homo sapiens, UniProt P35968): 96.9%
Ribosomal protein S6 kinase alpha-4 (RPS6KA4, Homo sapiens, UniProt O75676): 104%
Serine/threonine-protein kinase MRCK beta (CDC42BPB, Homo sapiens, UniProt Q9Y5S2): 101%
Serine/threonine-protein kinase PAK 3 (PAK3, Homo sapiens, UniProt O75914): 97.6%

Set 4 — observed: acetyl-histone H4 peptide binding; method: AlphaScreen displacement; concentration: 50 µM; quantity: inhibition
Target: Bromodomain-containing protein 4, BD1 (BRD4, Homo sapiens, UniProt O60885)
CCOC(=O)C1=C(CSc2ccccc2C(=O)O)NC(=O)NC1: 10.1%
CCCCc1c(-c2ccc(O)cc2)[nH]c2nccnc12: 3.9%
O=C(CSc1ccc2nnc(-c3cccc(F)c3)n2n1)N1CCOCC1: 10.2%
O=C(NNC(=O)c1c(O)c2ccccc2[nH]c1=O)c1cccc(Cl)c1: -4.6%
O=S(=O)(O)c1cccc(NN=Nc2ccc(Br)cc2)c1: 20.8%
COC(=O)CSc1ccc2nnc(-c3cccc(F)c3)n2n1: 9.85%
